Results of several laboratories.
Protocols differ between the studies behind these lines. ± marks the error that the study gave.

`Cc1ccc(S(=O)(=O)N2C(=O)CSC2c2ccccc2Cl)cc1` (stereo not shown) has an MIC of 64 µg/mL (Streptococcus pneumoniae; broth microdilution; ATCC 49619).
The MIC of `O=C(COc1ccc(-c2nc3ccc(F)cc3[nH]2)cc1F)N1CCOCC1` is reported as greater than 256 µg/mL (Enterococcus faecalis; microbial growth, broth dilution; ATCC29212).
The MIC of `Cc1ccc(S(=O)(=O)N2C(=O)CSC2c2cccc([N+](=O)[O-])c2)cc1` (stereo not shown) is reported as 128 µg/mL (Streptococcus pneumoniae; broth microdilution; ATCC 49619).
`Fc1cc(-c2nc3ccccc3[nH]2)ccc1OCc1cn(CCN2CCOCC2)nn1` gave an MIC of greater than 256 µg/mL (Enterococcus faecalis; microbial growth, broth dilution; ATCC29212).
With `OB(O)O` the MIC was 0.0058% (Aspergillus niger; broth macrodilution; ATCC 16888; with: zinc borate 9%).
`Oc1c(I)cc(Cl)c2cccnc12` has an MIC of greater than 50 µM (Cryptococcus neoformans; H99 wild type; 48 h, 30 °C, SC medium, with: CuSO4 0.01 mM).
For `CC1(C)S[C@@H]2[C@H](NC(=O)[C@H](N)c3ccccc3)C(=O)N2[C@H]1C(=O)O`, the MIC was 2.5 ± 0.9 µg/mL (Lacticaseibacillus rhamnosus; broth microdilution; GG ATCC 53103, MRS medium; 24 h, 37 °C).
`O=CCc1ccccc1`: IC50 “inactive” (cysteine peptide Ac-RFAACAA-COOH; peptide depletion, DPRA RapidFire-MS/MS; 24 h, pH 7.5, room temperature, with: 5.0 µM cysteine peptide).
`Cc1ccc(S(=O)(=O)N2C(=O)CSC2c2ccc(O)cc2)cc1` (stereo not shown) gave an MIC of 32 µg/mL (Streptococcus pneumoniae; broth microdilution; ATCC 49619).
`O=C(O)CN(CCN(CC(=O)O)CC(=O)O)CC(=O)O` gave an MIC of greater than 100 µM (Cryptococcus neoformans; microbial growth, broth dilution; 48 h).
With `CN(C)c1ccc(O)c2c1C[C@H]1C[C@H]3[C@H](N(C)C)C(O)=C(C(N)=O)C(=O)[C@@]3(O)C(O)=C1C2=O` the MIC was 0.125 µg/mL (Streptococcus pneumoniae; 157E; 50% mouse serum).
The MIC of `O=C(O)c1cn(C2CC2)c2cc(N3CCNCC3)c(F)cc2c1=O` is reported as 1 µg/mL (Enterococcus faecalis; microbial growth, broth dilution; ATCC29212).
`Cc1ccc(S(=O)(=O)N2C(=O)CSC2c2cccc(C)c2)cc1` (stereo not shown) gave an MIC of 128 µg/mL (Streptococcus pneumoniae; broth microdilution; ATCC 49619).
For `CCN(CC)C(=S)SSC(=S)N(CC)CC`, the MIC was 25 µM (Cryptococcus neoformans; H99 wild type; 48 h, 30 °C, SC medium, no added copper).
`c1ccc2[nH]c(-c3ccc(OCc4cn(CCN5CCOCC5)nn4)cc3)nc2c1` gave an MIC of 0.25 µg/mL (Enterococcus faecalis; microbial growth, broth dilution; ATCC29212).
`COc1ccc(C(C)=O)cc1`: IC50 “inactive” (cysteine peptide Ac-RFAACAA-COOH; peptide depletion, DPRA RapidFire-MS/MS; 24 h, pH 7.5, room temperature, with: 5.0 µM cysteine peptide).
